Measurements collected from several papers.

Structure (SMILES) | organism | test | test system | setting | MIC
CN[C@@H]1[C@H](O)[C@H](NC)[C@H]2O[C@]3(O)[C@H](O[C@@H]2[C@H]1O)O[C@H](C)C[C@H]3NC(=O)Cc1cc(Cl)ccn1 | Proteus mirabilis | microbial growth, broth dilution | ATCC25933 | – | > 200 µg/mL
CC[C@H](C)[C@H](NC(=O)[C@H](CCCCN)NC(=O)[C@@H](NC(=O)[C@@H](NC(=O)[C@H](CC(C)C)NC(=O)[C@H](CCCNC(=N)N)NC(=O)[C@@H](NC(=O)[C@H](CC(C)C)NC(=O)[C@H](CCCNC(=N)N)NC(=O)CNC(=O)[C@H](Cc1ccccc1)NC(=O)[C@@H](N)CCCNC(=N)N)[C@@H](C)CC)[C@@H](C)CC)C(C)C)C(=O)N[C@@H](C)C(=O)N[C@@H](CCCNC(=N)N)C(=O)N[C@@H](CCCNC(=N)N)C(=O)N[C@@H](C)C(=O)N[C@@H](Cc1c[nH]cn1)C(=O)N[C@@H](CCCNC(=N)N)C(=O)N[C@@H](C)C(=O)N[C@@H](CCCNC(=N)N)C(=O)N1CCC[C@H]1C(=O)N[C@@H](C)C(=O)N[C@H](C(=O)N[C@@H](CCCCN)C(=O)N[C@@H](C)C(=O)N[C@@H](C)C(=O)N[C@@H](CO)C(=O)N[C@@H](CC(N)=O)C(=O)N[C@H](C(=O)N[C@@H](C)C(=O)N[C@@H](CCC(=O)O)C(=O)N[C@@H](CC(C)C)C(=O)N[C@@H](C)C(=O)N[C@@H](Cc1c[nH]cn1)C(=O)NCC(=O)N[C@@H](CCC(=O)O)C(N)=O)C(C)C)C(C)C | Cryptococcus neoformans | resazurin broth microdilution | – | 36 h, 35 °C | ≤ 0.062 µM
c1ccc2c(c1)nc(CNCC13CC4CC(CC(C4)C1)C3)n2CC1CCCCC1 | Enterobacter aerogenes | – | ATCC 35029 | – | > 128 µg/mL
Cc1ccc2nc(C)c(C(=O)NCc3ccccc3)n2c1 | Mycobacterium marinum | microbial growth | – | 5 days | > 128 µM
CCC(CO)NCCNC(CC)CO.CCOc1cc(C=NNC(N)=S)ccc1OC(=O)CN1C(=O)CSC1=O | Mycobacterium tuberculosis | growth in combination | 192 | added: reference drug at 1/2 MIC | 0.5 µg/mL
Cc1ccc2nc(C)c(C(=O)C(=O)NCc3ccccc3)n2c1 | Mycobacterium marinum | microbial growth | – | 5 days | > 128 µM
COc1cc(C=NNC(=O)c2ccncc2)ccc1OC(=O)CN1C(=O)CSC1=O.NNC(=O)c1ccncc1 | Mycobacterium tuberculosis | growth in combination | 192 | added: reference drug at 1/2 MIC | 0.0312 µg/mL
CCc1ccn2c(C(=O)NCc3ccc(C)cc3)c(C)nc2c1 | Mycobacterium marinum | microbial growth | – | 5 days | > 50 µM
CN[C@@H]1[C@H](O)[C@H](NC)[C@H]2O[C@]3(O)[C@H](O[C@@H]2[C@H]1O)O[C@H](C)C[C@H]3NC(=O)Cc1ccc(F)cn1 | Proteus mirabilis | microbial growth, broth dilution | ATCC25933 | – | > 200 µg/mL
CCC(CO)NCCNC(CC)CO.CCOc1cc(C=NNC(=S)Nc2cccc(Cl)c2)ccc1OC(=O)CN1C(=O)CSC1=O | Mycobacterium tuberculosis | growth in combination | H37Rv | added: reference drug at 1/2 MIC | 0.5 µg/mL
CN[C@@H]1[C@H](O)[C@H](NC)[C@H]2O[C@]3(O)[C@H](O[C@@H]2[C@H]1O)O[C@H](C)C[C@H]3NC(=O)Cc1ccc(Cl)cn1 | Proteus mirabilis | microbial growth, broth dilution | ATCC25933 | – | > 200 µg/mL
CCOc1cc(C=NNC(=O)c2cccnc2)ccc1OC(=O)CN1C(=O)CSC1=O.NNC(=O)c1ccncc1 | Mycobacterium tuberculosis | growth in combination | H37Rv | added: reference drug at 1/2 MIC | 0.0312 µg/mL
CN[C@@H]1[C@H](O)[C@H](NC)[C@H]2O[C@]3(O)[C@H](O[C@@H]2[C@H]1O)O[C@H](C)C[C@H]3NC(=O)Cc1ccccn1 | Proteus mirabilis | microbial growth, broth dilution | ATCC25933 | – | > 200 µg/mL
CC[C@H](C)[C@H](NC(=O)[C@H](CCCCN)NC(=O)[C@@H](NC(=O)[C@@H](NC(=O)[C@H](CC(C)C)NC(=O)[C@H](CCCNC(=N)N)NC(=O)[C@@H](NC(=O)[C@H](CC(C)C)NC(=O)[C@H](CCCNC(=N)N)NC(=O)CNC(=O)[C@H](Cc1ccccc1)NC(=O)[C@@H](N)CCCNC(=N)N)[C@@H](C)CC)[C@@H](C)CC)C(C)C)C(=O)N[C@@H](C)C(=O)N[C@@H](CCCNC(=N)N)C(=O)N[C@@H](CCCNC(=N)N)C(=O)N[C@@H](C)C(=O)N[C@@H](Cc1c[nH]cn1)C(=O)N[C@@H](CCCNC(=N)N)C(=O)N[C@@H](C)C(=O)N[C@@H](CCCNC(=N)N)C(=O)N[C@@H](CO)C(=O)N[C@@H](C)C(=O)N[C@H](C(=O)N[C@@H](CCCCN)C(=O)N[C@@H](C)C(=O)N[C@@H](C)C(=O)N[C@@H](CO)C(=O)N[C@@H](CC(N)=O)C(=O)N[C@H](C(=O)N[C@@H](C)C(=O)N[C@@H](C)C(=O)N[C@@H](CC(C)C)C(=O)N[C@@H](C)C(=O)N[C@@H](Cc1c[nH]cn1)C(=O)NCC(=O)N[C@@H](C)C(N)=O)C(C)C)C(C)C | Cryptococcus neoformans | resazurin broth microdilution | – | 36 h, 35 °C | ≤ 0.064 µM
CCC(CO)NCCNC(CC)CO.CCOc1cc(C=NNC(=O)c2ccccn2)ccc1OC(=O)CN1C(=O)CSC1=O | Mycobacterium tuberculosis | growth in combination | H37Rv | added: reference drug at 1/2 MIC | 0.5 µg/mL
CN[C@@H]1[C@H](O)[C@H](NC)[C@H]2O[C@]3(O)[C@H](O[C@@H]2[C@H]1O)O[C@H](C)C[C@H]3NC(=O)Cc1cscn1 | Proteus mirabilis | microbial growth, broth dilution | ATCC25933 | – | > 200 µg/mL
Nc1ccccc1C(=O)OCC#CCOC(=O)c1ccccc1N | Saccharomyces cerevisiae | – | S288c | – | > 128 µg/mL
Cc1ccc2nc(C)c(C(=O)C(=O)N(C)C)n2c1 | Mycobacterium marinum | microbial growth | – | 5 days | > 128 µM
CN[C@@H]1[C@H](O)[C@H](NC)[C@H]2O[C@]3(O)[C@H](O[C@@H]2[C@H]1O)O[C@H](C)C[C@H]3NC(=O)CNC(C)(C)C | Proteus mirabilis | microbial growth, broth dilution | ATCC25933 | – | > 200 µg/mL
